Assay results from different studies.
± marks the error that the study gave.

SMILES | target or system | test | test system | setting | how to read | measurement | result
FC(F)(F)c1ccc(CNc2ccc(Cc3c[nH]c4ncc(Cl)cc34)cn2)cn1 |  | measured: Arthralgia | patients with advanced solid tumours, non-TGCT cohort | oral, 1000 mg/day, grade 3 or higher |  | treatment-related adverse events | 0%
COc1ncc(-c2nc3c(n2C(C)C)[C@H](c2ccc(Cl)cc2)N(c2cc(Cl)cn(C)c2=O)C3=O)c(OC)n1 |  |  | human patients, plasma | oral, 100 mg, high-dose arm, cycle 1 day 1 |  | median half-life | 17.1 h
CC(C(=O)NCC(=O)NCC(CNC(=O)CNC(=O)C(C)N1CCN(CC(=O)[O-])CCN(CC(=O)[O-])CCN(CC(=O)[O-])CC1)(CNC(=O)CNC(=O)C(C)N1CCN(CC(=O)[O-])CCN(CC(=O)[O-])CCN(CC(=O)[O-])CC1)CNC(=O)CNC(=O)C(C)N1CCN(CC(=O)[O-])CCN(CC(=O)[O-])CCN(CC(=O)[O-])CC1)N1CCN(CC(=O)[O-])CCN(CC(=O)[O-])CCN(CC(=O)[O-])CC1.[Gd+3].[Gd+3].[Gd+3].[Gd+3] (stereo not shown) |  | LC-ICP-MS | human plasma | pH 7.4, 37 °C |  | dissociation rate | not detected
Cc1cccc(CNC(=O)c2cn(CCNC(=O)c3ccccc3S)c3cc4c(cc3c2=O)OC(F)(F)O4)n1 |  |  | Sprague-Dawley rat, male, plasma | intravenous, 5 mg/kg of parent compound |  | AUC(0-t) | 143 ± 9.81 ng·h/mL
O=C(Nc1nc2cccc(-c3ccc(CN4CCS(=O)(=O)CC4)cc3)n2n1)C1CC1 |  | measured: metabolism and nutrition disorders | human rheumatoid arthritis patients | oral, 75 mg once daily, 4 weeks, regardless of relatedness |  | treatment-emergent adverse events | 4.5%
CCCc1cc(C)[nH]c(=O)c1CNC(=O)c1cc(-c2ccc(N3CCN(C(C)C)CC3)nc2)cc2c1cnn2C(C)C | HBL-1 |  |  | 0.5 µM, 120 h |  | viability | 130%
CCN1CCN(Cc2ccc(NC(=O)c3ccc(C)c(NC(=O)c4cncc(-c5cccs5)c4)c3)cc2C(F)(F)F)CC1 |  |  | C57BL/6 mouse, plasma | intraperitoneal, 10 mg/kg, 0.25 to 8.0 h, single dose |  | AUC/dose | 0.12 kg·µg·h/mL/mg
Cc1ncsc1-c1ccc(CNC(=O)[C@@H]2C[C@@H](O)CN2C(=O)[C@@H](NC(=O)CCCCCCCCCC(=O)N2CCN(CC[C@H](NC(=O)C3(N)CCN(c4ncnc5[nH]ccc45)CC3)c3ccc(Cl)cc3)CC2)C(C)(C)C)cc1 |  |  | mouse, tumour | intraperitoneal, 75 mg/kg once daily for 5 days, 2 h after last dose |  | tumour concentration | ~500 nM
Cc1nc2ccc(OCc3ccc(C(F)(F)F)cc3)cc2[nH]1 |  |  | Balb/c mouse, male, heart | intravenous, 1 mg/kg, 3 h | reference: tissue over plasma | tissue/plasma ratio | 3.2 ± 0.5
CCc1cc(C(=O)NC)c2nccc(N3CCc4c(cc(Cn5ccnc5)cc4-c4cn(C)nc4C(F)(F)F)C3=O)c2c1 |  | measured: Neut | Sprague Dawley rat | oral, 100 mg/kg once daily, 7 days | reference: vehicle | change in clinical chemistry or haematology parameter | -37.5%
Cn1cc(-c2ccc(-c3cncc(Cl)c3N3CCC4(CCNC4=O)CC3)cc2)cn1 | COLO 205 | gene expression, microarray, measured: ISG15 mRNA |  | concentration not given, 6 h | reference: untreated cells | log2 fold change | 3
CCc1nc(C(N)=O)c(Nc2ccc(N3CCC(N4CCN(C)CC4)CC3)c(OC)c2)nc1NC1CCOCC1 |  |  | processed mouse plasma | 15 ng/mL, 24 h, 4 °C |  | re-injection stability accuracy | 101%
O=C(CCCCCCC(=O)Nc1cccnc1)NO | HBL-1 |  |  | 0.5 µM, 120 h |  | viability | 81.3%
Cc1ccccc1-c1ccc([C@@H]2[C@@H](CO)N3CCCCN(S(C)(=O)=O)C[C@@H]23)cc1 | IDE (Homo sapiens, UniProt P14735) | enzyme activity, inhibitor, fluorogenic kinetic |  | with: Mca-RPPGFSAFK(Dnp)-OH substrate |  | EC50 | 1300 nM
CC(C(=O)NCC(=O)NCC(CNC(=O)CNC(=O)C(C)N1CCN(CC(=O)[O-])CCN(CC(=O)[O-])CCN(CC(=O)[O-])CC1)(CNC(=O)CNC(=O)C(C)N1CCN(CC(=O)[O-])CCN(CC(=O)[O-])CCN(CC(=O)[O-])CC1)CNC(=O)CNC(=O)C(C)N1CCN(CC(=O)[O-])CCN(CC(=O)[O-])CCN(CC(=O)[O-])CC1)N1CCN(CC(=O)[O-])CCN(CC(=O)[O-])CCN(CC(=O)[O-])CC1.[Gd+3].[Gd+3].[Gd+3].[Gd+3] (stereo not shown) |  | ICP-MS | female cynomolgus monkey, plasma | intravenous bolus, 0.1 mmol/kg, lanthanide mixture, geometric mean |  | total plasma clearance | 1.9 mL/min/kg
Nc1ccn([C@@H]2O[C@H](CO)[C@@H](O)C2(F)F)c(=O)n1 |  |  | Sprague-Dawley rat, male, plasma | intravenous, 5 mg/kg |  | Vz/F | 0.27 ± 0.02 (mg/kg)/(µg/mL)
CCc1c(C)nc(-c2ccc(Cl)s2)nc1Nc1ccc(CC(=O)O)cc1 |  |  | mice, chronic ethanol plus binge | intraperitoneal, 0.3 mg/kg daily, ethanol diet 4 weeks, dosed last two | reference: vehicle | serum creatinine | no effect
C=CC(=O)Nc1cc(Nc2nccc(-c3c[nH]c4ccccc34)n2)c(OC)cc1N(C)CCN(C)C |  | population PK model | human | dose not given |  | apparent metabolite volume Vm/F | 151 L
COC(=O)N[C@@H](C)CNc1nccc(-c2cn(C(C)C)nc2-c2cc(Cl)cc(NS(C)(=O)=O)c2F)n1 |  |  | human, plasma | oral, single dose, with: diltiazem | reference: compound alone | AUClast geometric mean ratio | 184%
O=C(/C=C/c1cccc(S(=O)(=O)Nc2ccccc2)c1)NO |  |  | human patients, plasma | 1900 mg/m^2 |  | Vss | 24.3 L/m²
CC(C)(C(=O)N1CCOc2c(C#N)cncc2C1)C(F)F |  | measured: eye disorders | human | oral, 15 mg twice daily, 14 days, multiple ascending dose |  | subjects with adverse event | 0%
CC(C)c1nc(N(C)S(C)(=O)=O)nc(-c2ccc(F)cc2)c1/C=C/[C@@H](O)C[C@@H](O)CC(=O)O |  | measured: diarrhoea | healthy men | oral, dose not given, 8 days, treatment-emergent, crossover trial |  | subjects with adverse event | 0%
